Assay results of several laboratories.
Each numbered part is a random draw from the data of one study; scales do not carry over between parts. Changes are numbered by the printed parent chain.

Series 1
Target: RNA binding protein fox-1 homolog 2, RRM domain, GST-SBP tag (RBFOX2, Homo sapiens, UniProt O43251-10, residues 100-194)
Technique: RNA Bind-n-Seq
Form: RNA
Medium: in vitro
Tested at: 365 nM
Setting: natural RNA segment, single round, ends assumed
Reference: no-protein control
Direction: higher = stronger binding
Constant ends, left off below: GGGAGUUCUACAGUCCGACGAUC … UGGAAUUCUCGGGUGCCAA
Target sequence (chain): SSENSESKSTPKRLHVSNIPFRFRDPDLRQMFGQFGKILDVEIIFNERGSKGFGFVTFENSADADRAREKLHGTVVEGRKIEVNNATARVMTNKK
`CUGAAGGAAACAUGACCAUUCUGAGUUUAAAAAAAAGUACAAAUUGCUUCUGAGGCACUAUUUGCCCUAAAAUAUAAUGGGCUUUUGUUUUGAGACUGGGUUUCAUUCUG` — result for “RBNS enrichment (R)”: 0.395.
`AAGUUUCUGGCAUUAGCAGAUGAUUUCUGUUCACCUGGUAAGAAAAGAAUGAUAGGCUUGUCAGAGCCUAUAGCCAGAACUCAGAAAAAAUUCAAAUGCACUUAUGUUCU`: “RBNS enrichment (R)” 1.31.
`UGUUUUGAUAUCUGAGAGACAGAAAGGUCUCCCCAGGCUGGUCUCCAACUCCUGGCAAUCCUCCUGCCUCUGUUUCUCAGUUGCUCUGACAACAGGUGUGUACCACCACU` — result for “RBNS enrichment (R)”: 0.212.
Under “RBNS enrichment (R)”, `UAAAUUAUUGAGGGGACUAGGCUAUAUGCAUUUGCCUUCAUCCACCCAUGUUUAUUAAGAAUCAUUGUGCUUAAUAAUACCAAGACUAAGCACCAUAACCAAGAAAUACU` is recorded as 0.55.
`GUACUAUGUUGAAAAAAUAUCCUGUCCACAAAGACAUAAGCCUAACAACCUAGAAAAACAACAGGGUACUACUGGCAUUACAGAACUUCUUUGCCUUUCAAAACAAAAGC`: “RBNS enrichment (R)” 0.341.
Under “RBNS enrichment (R)”, `GACCACCCCCACGUUCAGAAAUCAGCUGGCCAAGUGACUCCAUUUGACUUGCAAACCAGCCUUUUCUAAUAGGCUAAUAUUGCUGAGGCCUUAAAGGAAAUGGACAAAAA` is recorded as 0.37.
`AGUGGGAAAUUUUCAAAAGUUUCUCCUGCUGGAAAUAAGGUAUAAUUUGUAUUUUGCAGACAAUUCAGUAAAGUUACUGGCUUUCUUAGUGAUGCAGUGUCCGUGGUGCA` — result for “RBNS enrichment (R)”: 1.92.
`GGUGCCUGCCACCAUGGUGGGAUCCAGUAUGUUUUAUAAAUCUGAAUGAGUAAAUGGCUCACCAAUUUAUGCAUAGCCCUGCACAUGAGCAGAAUGUGACACUCAAAGCA`: “RBNS enrichment (R)” 2.75.

Series 2
Target: Sal-like protein 4, full length isoform A (SALL4, Homo sapiens, UniProt Q9UJQ4, residues 1-1053)
Chain of UniProt Q9UJQ4 (whole entry, looked up): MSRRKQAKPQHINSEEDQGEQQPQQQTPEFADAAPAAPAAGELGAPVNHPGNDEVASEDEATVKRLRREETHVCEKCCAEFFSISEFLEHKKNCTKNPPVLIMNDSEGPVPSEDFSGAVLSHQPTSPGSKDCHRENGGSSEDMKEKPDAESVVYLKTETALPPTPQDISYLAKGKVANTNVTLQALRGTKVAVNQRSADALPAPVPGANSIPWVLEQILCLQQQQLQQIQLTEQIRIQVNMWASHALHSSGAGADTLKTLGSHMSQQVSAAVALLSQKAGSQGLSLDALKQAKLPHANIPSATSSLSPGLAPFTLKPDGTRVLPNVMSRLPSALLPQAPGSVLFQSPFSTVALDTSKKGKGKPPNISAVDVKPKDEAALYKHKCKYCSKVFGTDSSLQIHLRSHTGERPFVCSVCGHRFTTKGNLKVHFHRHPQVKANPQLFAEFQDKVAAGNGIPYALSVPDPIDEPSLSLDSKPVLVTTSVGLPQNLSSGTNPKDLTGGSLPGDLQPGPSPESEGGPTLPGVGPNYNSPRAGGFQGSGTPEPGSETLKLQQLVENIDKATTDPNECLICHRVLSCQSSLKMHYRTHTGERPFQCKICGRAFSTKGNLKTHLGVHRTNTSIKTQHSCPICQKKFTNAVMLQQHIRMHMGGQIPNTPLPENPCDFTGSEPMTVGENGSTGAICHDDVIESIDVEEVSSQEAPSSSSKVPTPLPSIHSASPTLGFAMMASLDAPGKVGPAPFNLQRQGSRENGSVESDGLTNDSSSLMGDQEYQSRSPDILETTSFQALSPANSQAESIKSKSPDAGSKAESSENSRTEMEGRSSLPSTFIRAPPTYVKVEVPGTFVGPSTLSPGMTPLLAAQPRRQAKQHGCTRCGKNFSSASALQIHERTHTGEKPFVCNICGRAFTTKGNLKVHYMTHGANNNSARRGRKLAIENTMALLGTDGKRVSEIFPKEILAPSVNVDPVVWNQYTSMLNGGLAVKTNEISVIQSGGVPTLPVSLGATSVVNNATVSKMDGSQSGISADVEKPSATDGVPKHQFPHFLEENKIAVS
Technique: universal PBM
Form: double-stranded DNA, one strand shown
Medium: in vitro
Tested at: 600 nM
Setting: 8-mer, flanks averaged, mean of replicates
Direction: higher = stronger binding
For `ACGGTCTA`, the E-score was -0.038.
`ACTCCACT` gave an E-score of -0.0115.
`CAACGGAC` gave an E-score of -0.209.
For `CGGCGACA`, the E-score was -0.196.
The E-score of `GGAGCCCC` is reported as -0.428.
With `TCCTTACA` the E-score was 0.0237.
For `ACCCAGGT`, the E-score was -0.362.
`TAACTCGA` gave an E-score of 0.145.
With `GACCAGGC` the E-score was -0.269.
`ACGACTTA` has an E-score of 0.0143.
With `CATCACAG` the E-score was 0.039.
The E-score of `CGTCTGCA` is reported as -0.124.
For `CACAGCTG`, the E-score was -0.254.

Series 3
Target: CCND3, cyclin fold, Cln2 fusion (human)
Technique: yeast growth competition, sequencing
Medium: yeast
Setting: weak parent motif
Reference: not given
Direction: higher = stronger binding
Starting sequence: ITGB3BP docking peptide (human); MPVKRSLKLDGLL; partner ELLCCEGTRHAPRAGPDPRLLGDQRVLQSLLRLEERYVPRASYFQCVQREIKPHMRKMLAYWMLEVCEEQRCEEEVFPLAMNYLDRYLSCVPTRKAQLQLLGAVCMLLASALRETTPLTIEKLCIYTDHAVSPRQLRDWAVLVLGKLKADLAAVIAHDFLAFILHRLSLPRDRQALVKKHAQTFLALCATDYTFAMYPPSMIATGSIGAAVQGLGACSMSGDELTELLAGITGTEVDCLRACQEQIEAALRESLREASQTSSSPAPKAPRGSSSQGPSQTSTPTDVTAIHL
For `MPVKRSLALDGLL [K8A]`, “normalised enrichment score” read 0.161.
`MPVARSLKLDGLL [K4A]`: “normalised enrichment score” 0.117.
`MPVKRSLKFDGLL [L9F]` — result for “normalised enrichment score”: -0.184.
For `MPVKRSLKLAGLL [D10A]`, “normalised enrichment score” read 0.0691.
For `APVKRSLKLDGLL [M1A]`, “normalised enrichment score” read 0.0453.
`MPVKRSLKLDGAL [L12A]` — result for “normalised enrichment score”: 0.106.
For `MPAKRSLKLDGLL [V3A]`, “normalised enrichment score” read 0.223.

Further values, each from its own experiment
For `PhoQ, residues 284 288 289 292 302 303 AMDMFI`, the fold induction was 0.786 (PhoP, residues 12 14 15 18 19 TQAIL (Escherichia coli, UniProt P23836); Sort-seq, refers to: YFP reporter; E. coli; PhoQ-PhoP variant library, with: 10 µM Mg2+; reference: high Mg2+ state, higher = stronger signaling).

Excerpt of the above (series 2):
`CAACGGAC` gave an E-score of -0.209.
For `CGGCGACA`, the E-score was -0.196.
The E-score of `GGAGCCCC` is reported as -0.428.
